Assay results from different studies.
Numbered parts are unrelated; each lists some results of a single study.
Sequence of UniProt P42681 (whole entry, looked up): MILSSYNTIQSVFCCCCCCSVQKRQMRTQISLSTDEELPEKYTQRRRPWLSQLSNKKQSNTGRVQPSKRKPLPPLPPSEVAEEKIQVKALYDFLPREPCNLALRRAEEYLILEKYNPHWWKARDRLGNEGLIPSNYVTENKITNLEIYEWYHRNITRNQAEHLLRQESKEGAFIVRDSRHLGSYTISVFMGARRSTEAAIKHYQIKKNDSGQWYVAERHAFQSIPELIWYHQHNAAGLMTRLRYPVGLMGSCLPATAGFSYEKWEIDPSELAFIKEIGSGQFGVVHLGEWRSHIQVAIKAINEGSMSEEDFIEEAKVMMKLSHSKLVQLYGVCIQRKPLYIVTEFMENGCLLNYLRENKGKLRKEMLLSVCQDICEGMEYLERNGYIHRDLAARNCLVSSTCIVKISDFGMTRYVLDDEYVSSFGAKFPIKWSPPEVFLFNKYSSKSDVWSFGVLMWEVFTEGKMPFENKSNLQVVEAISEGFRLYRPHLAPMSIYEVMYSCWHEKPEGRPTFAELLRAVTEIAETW
Sequence of UniProt Q9H0K1 (whole entry, looked up): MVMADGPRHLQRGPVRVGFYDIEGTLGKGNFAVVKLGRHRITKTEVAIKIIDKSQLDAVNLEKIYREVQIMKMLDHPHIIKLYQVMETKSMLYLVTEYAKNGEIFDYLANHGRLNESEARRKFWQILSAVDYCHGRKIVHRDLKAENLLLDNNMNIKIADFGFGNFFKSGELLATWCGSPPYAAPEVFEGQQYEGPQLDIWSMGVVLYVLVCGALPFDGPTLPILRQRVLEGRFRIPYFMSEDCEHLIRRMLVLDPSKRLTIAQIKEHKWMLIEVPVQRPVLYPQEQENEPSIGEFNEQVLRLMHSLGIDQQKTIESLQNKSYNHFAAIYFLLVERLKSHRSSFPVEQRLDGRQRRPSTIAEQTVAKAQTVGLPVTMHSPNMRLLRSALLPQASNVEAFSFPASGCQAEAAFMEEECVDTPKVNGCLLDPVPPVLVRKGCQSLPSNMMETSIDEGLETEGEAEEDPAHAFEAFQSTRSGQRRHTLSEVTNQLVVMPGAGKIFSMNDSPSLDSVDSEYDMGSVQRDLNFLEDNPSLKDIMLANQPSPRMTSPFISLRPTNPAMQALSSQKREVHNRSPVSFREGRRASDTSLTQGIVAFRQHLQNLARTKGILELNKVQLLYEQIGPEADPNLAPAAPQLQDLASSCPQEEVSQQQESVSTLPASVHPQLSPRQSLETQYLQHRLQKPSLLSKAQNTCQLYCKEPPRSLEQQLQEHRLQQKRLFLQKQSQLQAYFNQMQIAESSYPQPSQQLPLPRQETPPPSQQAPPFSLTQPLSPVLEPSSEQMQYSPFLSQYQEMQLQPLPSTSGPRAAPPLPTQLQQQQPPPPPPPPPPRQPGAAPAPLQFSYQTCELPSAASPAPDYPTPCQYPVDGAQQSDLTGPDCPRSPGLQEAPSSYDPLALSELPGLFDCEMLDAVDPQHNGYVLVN
Sequence of UniProt Q8TF76 (whole entry, looked up): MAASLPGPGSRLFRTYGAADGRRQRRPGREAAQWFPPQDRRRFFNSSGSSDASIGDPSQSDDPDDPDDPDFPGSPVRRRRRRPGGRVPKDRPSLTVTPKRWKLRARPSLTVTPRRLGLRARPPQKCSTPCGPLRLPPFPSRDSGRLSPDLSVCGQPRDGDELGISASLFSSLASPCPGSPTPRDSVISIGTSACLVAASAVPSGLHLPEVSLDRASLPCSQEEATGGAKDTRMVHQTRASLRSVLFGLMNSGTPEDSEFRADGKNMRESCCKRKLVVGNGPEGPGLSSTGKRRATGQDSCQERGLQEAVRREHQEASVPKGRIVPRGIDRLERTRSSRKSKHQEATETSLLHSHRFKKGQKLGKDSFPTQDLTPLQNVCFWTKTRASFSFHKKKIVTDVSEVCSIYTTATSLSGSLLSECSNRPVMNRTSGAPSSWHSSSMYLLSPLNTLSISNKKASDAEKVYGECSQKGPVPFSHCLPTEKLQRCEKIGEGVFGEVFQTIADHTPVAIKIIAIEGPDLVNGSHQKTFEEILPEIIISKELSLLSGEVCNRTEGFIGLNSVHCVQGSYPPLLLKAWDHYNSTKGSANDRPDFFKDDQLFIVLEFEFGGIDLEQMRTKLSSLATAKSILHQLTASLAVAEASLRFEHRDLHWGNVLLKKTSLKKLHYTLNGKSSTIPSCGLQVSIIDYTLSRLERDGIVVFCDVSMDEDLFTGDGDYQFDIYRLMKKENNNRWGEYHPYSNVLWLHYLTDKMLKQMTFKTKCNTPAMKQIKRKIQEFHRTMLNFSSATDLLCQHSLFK
Sequence of UniProt P51956 (whole entry, looked up): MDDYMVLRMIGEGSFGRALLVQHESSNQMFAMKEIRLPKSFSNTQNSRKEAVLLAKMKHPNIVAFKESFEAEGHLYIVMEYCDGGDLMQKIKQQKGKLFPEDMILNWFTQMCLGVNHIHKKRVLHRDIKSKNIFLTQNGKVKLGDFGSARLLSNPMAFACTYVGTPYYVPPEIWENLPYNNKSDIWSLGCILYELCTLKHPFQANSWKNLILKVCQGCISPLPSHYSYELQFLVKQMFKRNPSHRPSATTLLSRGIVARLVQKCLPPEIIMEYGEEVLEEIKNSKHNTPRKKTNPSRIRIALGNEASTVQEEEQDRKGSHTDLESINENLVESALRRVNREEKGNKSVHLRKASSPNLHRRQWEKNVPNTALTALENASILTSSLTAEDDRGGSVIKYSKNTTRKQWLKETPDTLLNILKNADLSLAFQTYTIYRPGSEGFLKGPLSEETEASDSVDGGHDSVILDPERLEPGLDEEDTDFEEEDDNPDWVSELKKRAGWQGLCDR
Sequence of UniProt Q14680 (whole entry, looked up): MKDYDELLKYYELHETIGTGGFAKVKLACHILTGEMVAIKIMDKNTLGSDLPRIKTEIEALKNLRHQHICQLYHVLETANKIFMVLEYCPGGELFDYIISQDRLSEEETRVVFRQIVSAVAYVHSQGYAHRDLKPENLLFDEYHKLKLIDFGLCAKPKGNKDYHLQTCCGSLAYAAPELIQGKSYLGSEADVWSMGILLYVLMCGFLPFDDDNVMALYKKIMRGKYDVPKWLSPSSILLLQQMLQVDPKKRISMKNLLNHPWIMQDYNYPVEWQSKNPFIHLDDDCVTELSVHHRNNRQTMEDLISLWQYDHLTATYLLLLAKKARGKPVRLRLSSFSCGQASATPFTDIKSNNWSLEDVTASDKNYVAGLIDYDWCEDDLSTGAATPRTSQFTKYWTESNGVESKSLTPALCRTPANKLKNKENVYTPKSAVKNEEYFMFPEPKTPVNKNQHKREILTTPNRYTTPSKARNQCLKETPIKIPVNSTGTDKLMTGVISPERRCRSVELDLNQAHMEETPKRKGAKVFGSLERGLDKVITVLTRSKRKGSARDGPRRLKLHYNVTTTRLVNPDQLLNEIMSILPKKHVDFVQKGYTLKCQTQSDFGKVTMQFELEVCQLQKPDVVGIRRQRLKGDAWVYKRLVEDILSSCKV

Block 1 — read-out: enzyme activity; action: inhibitor; concentration: 0.5 µM; reference: control
Target: Tyrosine-protein kinase FRK (FRK, Homo sapiens, UniProt P42685)
Sequence of UniProt P42685 (whole entry, looked up): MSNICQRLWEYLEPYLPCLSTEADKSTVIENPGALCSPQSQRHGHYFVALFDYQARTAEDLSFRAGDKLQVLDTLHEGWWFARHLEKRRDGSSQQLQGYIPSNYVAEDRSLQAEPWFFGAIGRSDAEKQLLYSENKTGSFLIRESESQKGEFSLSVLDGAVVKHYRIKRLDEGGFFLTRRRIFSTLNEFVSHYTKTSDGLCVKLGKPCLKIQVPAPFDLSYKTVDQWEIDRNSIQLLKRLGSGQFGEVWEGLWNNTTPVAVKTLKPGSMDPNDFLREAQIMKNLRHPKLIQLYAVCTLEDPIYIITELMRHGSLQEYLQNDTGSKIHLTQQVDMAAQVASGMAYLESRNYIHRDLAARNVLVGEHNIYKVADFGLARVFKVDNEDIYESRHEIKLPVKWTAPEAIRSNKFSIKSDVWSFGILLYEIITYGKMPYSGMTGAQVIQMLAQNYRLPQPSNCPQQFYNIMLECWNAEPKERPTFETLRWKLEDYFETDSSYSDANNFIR
| Compound | remaining activity [%] |
| --- | --- |
| COc1ccc(CNC(=O)Nc2ncc([N+](=O)[O-])s2)cc1 | 97.2 |
| C#Cc1cccc(Nc2ncnc3cc(OCCOC)c(OCCOC)cc23)c1 | 102 |
| Cn1sc(=O)n(Cc2ccccc2)c1=O | 112 |
| Oc1ccc(-c2nc(-c3ccncc3)c(-c3ccc(F)cc3)[nH]2)cc1 | 90.4 |
| O=C(CCCc1ccc(-c2ccccc2F)cc1)Nc1ccc(O)cc1 | 91.9 |
| O=C(Nc1cccc(Nc2cc(Nc3cccc(C(F)(F)F)c3)ncn2)c1)C1CC1 | 102 |
| CO[C@H]1C[C@@H]2CC[C@@H](C)[C@@](O)(O2)C(=O)C(=O)N2CCCC[C@H]2C(=O)O[C@H]([C@H](C)C[C@@H]2CC[C@@H](O)[C@H](OC)C2)CC(=O)[C@H](C)/C=C(\C)[C@@H](O)[C@@H](OC)C(=O)[C@H](C)C[C@H](C)/C=C/C=C/C=C/1C | 106 |
| Cn1c2ccccc2c2c3c(c4c5ccccc5n(CCC#N)c4c21)CNC3=O | 84.7 |
| Cc1nc(-c2ccccc2)c(-c2ccncc2)o1 | 103 |
| COc1cc2ncnc(Nc3ccc(F)c(Cl)c3)c2cc1OCCCN1CCOCC1 | 97.9 |
| COc1ccc(C(=O)Nc2sc3c(c2C(N)=O)CCCC3)cc1OC | 88.8 |
| Cc1cccc(-c2[nH]c(C(C)(C)C)nc2-c2ccc3c(c2)OCO3)n1 | 98.8 |
| Nc1[nH]nc2nc3ccccc3nc12 | 96.8 |

Block 2 — method: competition with immobilised ligand; concentration: 1 µM
SMILES: CO[C@H]1CC[C@H](CNc2ccc(S(=O)(=O)NC(=O)c3ccc(N4CCN(CC5=C(c6ccc(Cl)cc6)CC(C)(C)CC5)CC4)cc3Oc3cnc4[nH]ccc4c3)cc2[N+](=O)[O-])CC1
| target | read-out | remaining binding [%] |
| --- | --- | --- |
| Serine/threonine-protein kinase Nek3 (NEK3, Homo sapiens, UniProt P51956) | cell-free assay | 66 |
| Serine/threonine-protein kinase SIK2 (SIK2, Homo sapiens, UniProt Q9H0K1) | cell-free assay | 100 |
| Serine/threonine-protein kinase haspin (HASPIN, Homo sapiens, UniProt Q8TF76) | cell-free assay | 88 |
| Maternal embryonic leucine zipper kinase (MELK, Homo sapiens, UniProt Q14680) | cell-free assay | 67 |
| Tyrosine-protein kinase TXK (TXK, Homo sapiens, UniProt P42681) | binding | 100 |

Block 3 — species: mouse; medium: microsomes or S9; concentration: 2 µM; time: 0.5 h
| Structure (SMILES) | remaining compound [%] |
| --- | --- |
| Cc1cc2c(c(O)c1-c1c(C)cc3c(c1O)C(=O)C(O)C3C(C)C)C(=O)C(O)C2C(C)C (centres unmarked) | 62.3 |
| Cc1n[nH]c(CN2CCOc3cc(F)c(Br)cc32)n1 | 11.5 |
| O=C(NCCCn1cccn1)c1c(OCC2CC2)cc(=O)n2c1CCCCC2 | 46.3 |
| O=C(Cc1c(F)cccc1Cl)N1CCc2n[nH]c(=O)n2CC1 | 29.2 |
| CC(C)C[C@H](C(=O)NOC(C)(C)C)N1C(=O)Nc2cc(Cl)cc(Cl)c2S1(=O)=O | 2.67 |
| CCN1CC(CN(C)c2ncnc3sccc23)Oc2ccccc21 (centres unmarked) | 0.0196 |

Block 4 — read-out: enzyme activity; action: inhibitor; concentration: 10 µM
Target: Calcium/calmodulin-dependent protein kinase type II subunit alpha (CAMK2A, Homo sapiens, UniProt Q9UQM7)
Sequence of UniProt Q9UQM7 (whole entry, looked up): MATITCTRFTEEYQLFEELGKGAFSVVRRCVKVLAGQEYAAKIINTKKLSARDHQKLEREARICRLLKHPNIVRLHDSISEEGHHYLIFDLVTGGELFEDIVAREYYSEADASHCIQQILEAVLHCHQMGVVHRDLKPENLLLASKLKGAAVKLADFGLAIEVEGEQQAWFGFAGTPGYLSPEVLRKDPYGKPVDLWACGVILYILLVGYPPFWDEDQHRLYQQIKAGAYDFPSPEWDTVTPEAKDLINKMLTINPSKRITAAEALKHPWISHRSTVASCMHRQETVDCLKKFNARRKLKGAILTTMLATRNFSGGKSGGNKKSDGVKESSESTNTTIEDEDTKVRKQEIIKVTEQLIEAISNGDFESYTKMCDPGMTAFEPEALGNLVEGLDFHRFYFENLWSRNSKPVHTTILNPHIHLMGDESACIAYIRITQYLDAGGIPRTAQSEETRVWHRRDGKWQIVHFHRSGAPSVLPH
| SMILES | inhibition [%] |
| --- | --- |
| CCOCCn1c(N2CCCN(C)CC2)nc2ccccc21 | -2 |
| C[C@@H]1O[C@@H](O[C@H]2[C@H](O)[C@@H](O)[C@H](O[C@H]3CC[C@]4(C)[C@H]5CC=C6[C@@H]7CC(C)(C)CC[C@]7(CO)[C@@H](O)C[C@@]6(C)[C@]5(C)CC[C@H]4C3(C)C)O[C@@H]2CO[C@@H]2O[C@H](CO)[C@@H](O)[C@H](O)[C@H]2O)[C@H](O)[C@H](O)[C@H]1O | -16 |
| CC(C)=CCC/C(C)=C\CO | 8 |
| N[C@@H](CS(=O)O)C(=O)O | -3 |
| O=P(O)(O)C(O)(Cc1cnc2ccccn12)P(=O)(O)O | -7 |

Some of these lines once more (block 1):
| Compound | remaining activity [%] |
| --- | --- |
| Nc1[nH]nc2nc3ccccc3nc12 | 96.8 |
| O=C(CCCc1ccc(-c2ccccc2F)cc1)Nc1ccc(O)cc1 | 91.9 |
| COc1ccc(C(=O)Nc2sc3c(c2C(N)=O)CCCC3)cc1OC | 88.8 |
